# Measured values from different studies.
# Each numbered part is a random draw from the data of one study; scales do not carry over between parts.

# Series 1 — method: universal PBM; form: double-stranded DNA, one strand shown; sample: in vitro; concentration: 600 nM; direction: higher = stronger binding
# Target: Sal-like protein 4, full length isoform A (SALL4, Homo sapiens, UniProt Q9UJQ4, residues 1-1053)
# Chain of UniProt Q9UJQ4 (whole entry, looked up): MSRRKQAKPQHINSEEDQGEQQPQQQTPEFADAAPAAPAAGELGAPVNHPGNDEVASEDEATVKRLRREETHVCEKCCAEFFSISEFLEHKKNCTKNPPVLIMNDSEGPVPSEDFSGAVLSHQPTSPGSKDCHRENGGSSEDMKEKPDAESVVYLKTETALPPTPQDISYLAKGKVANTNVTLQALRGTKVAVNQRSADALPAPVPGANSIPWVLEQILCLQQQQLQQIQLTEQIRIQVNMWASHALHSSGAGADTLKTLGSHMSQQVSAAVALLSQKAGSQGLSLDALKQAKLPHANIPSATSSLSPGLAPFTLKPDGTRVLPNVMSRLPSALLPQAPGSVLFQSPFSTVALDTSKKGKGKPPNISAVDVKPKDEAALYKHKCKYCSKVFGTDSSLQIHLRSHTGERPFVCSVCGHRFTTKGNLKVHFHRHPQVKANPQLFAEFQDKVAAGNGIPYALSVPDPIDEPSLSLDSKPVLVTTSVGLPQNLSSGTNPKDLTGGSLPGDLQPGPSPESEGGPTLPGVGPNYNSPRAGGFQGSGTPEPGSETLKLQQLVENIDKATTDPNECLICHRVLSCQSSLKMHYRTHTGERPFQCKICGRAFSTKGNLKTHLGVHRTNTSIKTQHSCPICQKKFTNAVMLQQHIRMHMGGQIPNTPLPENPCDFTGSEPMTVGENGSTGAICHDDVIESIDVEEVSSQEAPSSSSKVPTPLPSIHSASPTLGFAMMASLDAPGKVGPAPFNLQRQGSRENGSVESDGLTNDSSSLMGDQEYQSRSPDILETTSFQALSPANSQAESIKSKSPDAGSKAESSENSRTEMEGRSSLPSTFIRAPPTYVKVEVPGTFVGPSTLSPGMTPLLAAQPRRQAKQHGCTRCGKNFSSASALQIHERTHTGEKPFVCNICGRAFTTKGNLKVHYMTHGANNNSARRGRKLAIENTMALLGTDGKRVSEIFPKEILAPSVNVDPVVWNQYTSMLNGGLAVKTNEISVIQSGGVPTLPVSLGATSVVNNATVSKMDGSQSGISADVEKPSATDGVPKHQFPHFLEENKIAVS
# Setting: 8-mer, flanks averaged, mean of replicates
Strand,E-score
GAGCCCAC,-0.258
CCCTAGAG,-0.203
CCACGAGA,-0.266
AGCTCAGC,-0.256
CGCATATC,0.221
AAAGCCTT,-0.0208
ATCTACGG,0.00972
ATTCAGAA,0.168
AATAGAGG,0.0319
AGAAAGAC,-0.117
CGGCTGGA,-0.288
AACACCTG,-0.095
ACCATACT,0.11
CACAGTCA,0.0348
GCCCGGGA,-0.413
GCGGTACA,-0.162
AGACCTAC,-0.109
CAATGAAC,0.0418
ATCTCATG,0.0241
AGAAGCGC,-0.129

# Series 2 — method: RNA Bind-n-Seq; form: RNA; sample: in vitro; concentration: 365 nM; relative to: no-protein control; direction: higher = stronger binding
# Target: RNA binding protein fox-1 homolog 2, RRM domain, GST-SBP tag (RBFOX2, Homo sapiens, UniProt O43251-10, residues 100-194)
# Setting: natural RNA segment, single round, ends assumed
# Constant ends, left off below: GGGAGUUCUACAGUCCGACGAUC … UGGAAUUCUCGGGUGCCAA
# Residues (chain): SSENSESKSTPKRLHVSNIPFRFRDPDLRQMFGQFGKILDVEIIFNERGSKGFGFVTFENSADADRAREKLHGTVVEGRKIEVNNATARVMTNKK
Strand,RBNS enrichment (R)
ACCGGUCAGCAACCUUGGCAUUGAUACAUAGGCACUCUACAGAAUUUAAGUUUUCAGAGGUAAGUCUGUUGUUCUGAUUAAUCUGCAUUCAUUCAGCGAAUGCUCAAGAC,0.888
UUUUGCUCACUUUUCAGUUGGGUUUUUUUUCUUAUUAAAUAGUAAGAGUUCUUAAUAUAUUCUGGAUACAAGUCCUUUUAAGACAUGAUUUGCAAAUAUUUUCUCCCAGU,0.392
UUUUCUCUAAAUUUUGCCUCUAGGAAAAAAUUAAAACUAUUCAAUGACAGCUAGCUGUCACUGGUGCUACCCCAAAGCUUUCCAAUCUUUUAUGUAUUUUUUGUGAAUGA,0.997
GAAUGGUCAUAAUGAGACAACAGCUAACACUGAAUGCUUGCUGUGUGUUUGGCACUCUGCUAGACGUUUUACUGGUAUUAACCGAUUUAAUCCUCACAAUAACGAAGUAU,9.18
AAGCAUCUUUUGGUUAUCAGUUAAAUUGAGGUGGACAUUAUUUCCCCAAUUUCACAACAGGAUUCAUAUUGUUAAUUUAUAAAGCUAGACUUGGAGAAUUAAGGACUGAG,0.503
UAUCCUCCUAAAGACCUCCAAAGUUUUUAUGGAAGGGUAAAUACUGGUACCUUCCCCCAGCUUUCCAUCUGAGGACCAGAAAAGUUGUGUCUCCCUUAGAUGAGAUCUAG,0.251
UGCCAUAACCACAUUUAAUGGGAAAAACGGCAGUAUCACAGAUGUAAAUUAACUCACCAGAUUUACUGGGCCUGAACUCAUUCUCUUCUUGCUAUAUGAUUUAGCAAGUU,0.229
UACCCGCUGCCCCACAUACCCAGCAUGCCGCUGUGGCCACCAUGUCCUCAAAGCCUUCUGUCUGUAUCAGGAAUGUAGUCUGAGACUGCCAGGAAGCAACAAGGAGAGAG,1.7
UGACCCACCCCUUCCUGGAUCACUCCUUUGCACUCCACUCCCCUCGUUCUGUCACUUUGAACGAAGUCUGAGUGAGGCUAGUGACUCCUUGGGUGUCCUCAACAGUGAAU,0.364
GGGCAGCUGGAGGGUAGGCUCAGAAAUGAAGGGAACCCCUCAGUGGGCUGCUGGACCCAUCUUUCCCAAGCCUUGCCAUUAUCUCUGUGAGGGAGGCCAGGUAGCCGAGG,0.529
CCCCCUGCCGGACCAGGAGGCUCCCACAGACACGGCCUUCCACAGAGCGCGGUACAGCUGGGCCCAGCCCUGGAGAACCUCUCUUGUCCCAAGGAGCUUCGUGAACUGGC,0.282
GUUUUGUGUAACUCCCAGUGAUGCUGUACACAUAUUUGAAGGGUCUUUCUCAAAGAAAUAUUAAGCAUGUUUUGUUGCUCAGUGUUUUUGUGAAUUGCUUGGUUGUAAUU,1.91

# Series 3 — method: RNA Bind-n-Seq; form: RNA; sample: in vitro; concentration: 100 nM; relative to: input RNA pool; direction: higher = stronger binding
# Target: RING finger protein unkempt homolog, zinc fingers 1-6, SBP tag (UNK, Homo sapiens, UniProt Q9C0B0, residues 30-357)
# Chain of UniProt Q9C0B0 (30-357, looked up): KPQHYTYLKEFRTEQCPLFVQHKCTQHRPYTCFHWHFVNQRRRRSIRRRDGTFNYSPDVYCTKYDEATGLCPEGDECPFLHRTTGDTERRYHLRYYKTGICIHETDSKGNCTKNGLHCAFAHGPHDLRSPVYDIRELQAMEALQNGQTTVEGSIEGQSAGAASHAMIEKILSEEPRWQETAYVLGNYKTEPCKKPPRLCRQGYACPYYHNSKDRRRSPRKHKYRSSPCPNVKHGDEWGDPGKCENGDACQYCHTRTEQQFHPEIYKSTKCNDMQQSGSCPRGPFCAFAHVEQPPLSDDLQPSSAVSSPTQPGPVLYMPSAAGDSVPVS
# Setting: RNA with constant flanks, vertebrate orthologous sites, ends assumed
# Constant ends, left off below: GGGAGUUCUACAGUCCGACGAUC … CAACAGAGGAUUGAGCAUCA
Strand,bound/input enrichment [ratio]
AGAGGAUUAGGUUCCAUCCUUUACGUGUUUAAAAAAAAGCAUAAAAACAUUUUAAAAACAUAGAAAAAUUCAGCAAACCAUUUUUAAAGUAGAAGAGGGUUUUAGGUAGAAAAACAUAUU,0.828
GAUUUUCAAUCUCUUCCCCCUUAUCUUGAUUUUUUAAAAGCCCUUCUCUUUUUUUUUUAGGCAUAUGUAGAAACAUUAGCAGAAAGAUUUAAUUUGGGCGACUUUGAUUCUUAAAGAGAA,0.425
CACAUCUGGUGAUAUUUGGCCUGGCCUUUCAGCUUACGAUAAUAGUCCCAGAUCACCGCAUAGUCCUUCCCCUAUUGCUACACCACCUAGUCAGAGUUCAUCUUGCUCAGAUGCCCCCAU,0.928
GUGGGGAUGAGGGUGGGAUGGGAAAGGGAUGUAUGGAUGUUACUGGCAUUUUUAAGUGUUUUAGAGUUUUUUGGGGUUUGGGGUGGUUUUUUUUCCUUGUUUUCCUUUUUUCCUUUUAAU,2.34
CAGGGGUGGCCCCAAUCCCACCUCUGUCUAUUCUGUAAACUACAACCUGUAAAUGACGUUUAGCAUUCCUAUUGUAACAAAAUUAAUUUUUAUGAAAUAAAUUAUAUUUCCUAGUCUAAU,0.804
CAUUUCGAAUCUUCAGAAAUUGUUCUGAGAUCCUCAAGUUCAUUUUAUAGGCUCAGACCAGAGGAUGUUGUUGCUGCAUUGUUUUGUUUUUUCAUUUGUGUACUGGGUCCAGAGUUGCAU,0.401
CUACUCUAUGGGCCCCGCAGAGUGGAAAUAAUGGAAGAGGAAAGUGAACAGUAAUCUACUUAGUAUUUAUGCUUAGGUGUGAAAUAAAUGUUAUUUGUUGAUCACUUCUAUAAUCCAGAG,0.289
AUGCAUUUUGCUACUUGGAUGCGGUCUGCACAGAAAACUUCUGGCCUCUUCACAAGACCAAGUUAAUAUGUUUUUUUUUUAAGAUGUUAGGACCUAACUGAAUUUACUAAAAUGUAACUA,0.295
UCUCUACAAUUUUAAAGACACUUCCUUAUAAGGCACUUUGGCUCUUCAUAUAUCUCAUCCUGUUUACUUACCUGUUUUCAAAAACAGCAGUACGAACUCAGGGGACUCGCUUGGCGUGUG,0.452
GAAGUUCCCCAUUGUCACUGAGAACCACCAAAUCUGACUUUUACAUUUGGUCUCAGAAUUUAGGUUCCUGCCCUGUUGGUUUUUUCCCCUCCCUUUAAAAAAAACACCCAGUUUUCAAAA,0.463
GCACAUGCCACUGUCACCAAAAACGAACUACCACUUUCCAAAUUCCAUUCAGAGCCAUUUUAGUGUUUUCCUAUUCCCUACCCCUCCCACUACUUUCAAUGAUGAAAUACCCUAAGUUCU,2.48

# Series 4 — method: protein-binding microarray; form: double-stranded DNA, one strand shown; sample: in vitro; concentration: 0.8 µM; setting: whole 60-bp probe, no competitor; direction: higher = stronger binding; constant ends, left off below: … GTCTTGATTCGCTTGACGCTGCTG
# Target: Centromere-binding protein 1, full length, N-terminal tag (CBF1, Saccharomyces cerevisiae, UniProt P17106, residues 1-351)
# Chain of UniProt P17106 (whole entry, looked up): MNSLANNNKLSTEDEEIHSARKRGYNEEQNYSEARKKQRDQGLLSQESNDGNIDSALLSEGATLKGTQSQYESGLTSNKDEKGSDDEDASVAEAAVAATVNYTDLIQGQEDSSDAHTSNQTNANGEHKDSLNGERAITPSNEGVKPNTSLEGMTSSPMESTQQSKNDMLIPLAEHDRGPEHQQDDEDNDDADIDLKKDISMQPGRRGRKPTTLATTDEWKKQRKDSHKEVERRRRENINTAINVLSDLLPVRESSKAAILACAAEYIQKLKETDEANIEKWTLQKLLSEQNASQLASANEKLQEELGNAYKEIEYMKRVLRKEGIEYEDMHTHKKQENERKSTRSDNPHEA
Strand,fluorescence intensity
GAAATTTTTAAAAATCACGTAGGATAAATAGTATAG,650 a.u.
GAATGCGTCACTGCCCACGAGCACATGGGGTGATAG,1060 a.u.
GAAGATTTTCGCGTTCACGCCATTATCCAATGTTAG,548 a.u.
GAAGTGACTGGAGAGATCGTGACACTGCTGATGTAG,739 a.u.
GAATGCCAGAGTGTCCGCATGATTAATACTTTTTAG,550 a.u.
GAATTTACCAAAGATAAAATCACGTATAACATTTAG,1520 a.u.
TGTACGAAGCTATTAGATGTCACTATAGTAGTTAGG,543 a.u.
CCTAACTACTATAAATATGTGACATAGCTTCGTACA,518 a.u.
CTAAGTTCTGCTCATCTCATCACCAGTAAAAAATTC,558 a.u.
TGTACGAAGCTATCTACCGTGACTATAGTAGTTAGG,593 a.u.
GAAGATAACTAAAGGTGACTTACCGCCAGATTATAG,537 a.u.
GAAAAAACGAAAAGGCACGCATGGCTTGCGAAATAG,510 a.u.
CTAACAATGGTACATCAGGTTTAGTCTTTGCCATTC,534 a.u.
CTATGAAATAACATACACACGTGTAAGAATATATTC,5140 a.u.
CTAATTGGATTCGATCACGATGTATTCAATGAGTTC,725 a.u.
GAACACTGTTTATGTTGTGTGAACTTGTTGTAATAG,540 a.u.
TGTACGAAGCTATTCCACATGACTATAGTAGTTAGG,813 a.u.
CTATTTTATGGACCTGATGCAATCTAGTAGTCCTTC,488 a.u.
CTAGAGCAAGAACATCATCAGAAATACCAATGTTTC,504 a.u.
CTATTTTTTCGACAACAGGTGAGTGAAATAAAATTC,674 a.u.
CCTAACTACTATAGAAACGTGATATAGCTTCGTACA,1400 a.u.
CTAAGCACAATATAGCACGTCGAAACAGTGCTATTC,493 a.u.

# Series 5 — method: protein binding microarray; form: double-stranded DNA, one strand shown; sample: in vitro; concentration: not given; relative to: not given; direction: higher = stronger binding
# Target: Histone acetyltransferase KAT6A, both winged helices, GST fusion (KAT6A, Homo sapiens, UniProt Q92794, residues 1-181)
# Setting: 8-mer, flanks averaged, mean of 2 arrays, mostly near background
# Construct (chain): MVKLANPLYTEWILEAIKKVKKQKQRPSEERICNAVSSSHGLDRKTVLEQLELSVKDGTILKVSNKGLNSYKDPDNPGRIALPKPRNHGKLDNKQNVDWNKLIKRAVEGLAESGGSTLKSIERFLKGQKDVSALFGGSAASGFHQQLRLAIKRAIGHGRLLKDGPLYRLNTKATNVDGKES
Strand,E-score
CACAGAGA,-0.182
GAGGCTTA,-0.0797
CCAGGTAG,-0.157
ATTCGTTA,-0.0318
GAACTCTC,-4e-05
AATCCCTA,-0.0571
CAGTCTTC,-0.0447
CTTAGTAA,0.00734
ACGGCATC,0.292
CATCCGTC,0.162
ATAGGGCA,-0.218
GAACTCTA,-0.092
TATTAATA,0.196
AGATTATG,-0.0338
ACGAGAAC,0.00903
ACTACCGG,0.089
AGCAACTG,-0.0668
CCCGGAAA,0.154
AGGTTGTG,-0.129
GAGGGTGA,-0.12
AAGTATAG,-0.0999
ACCCGCCG,0.311

# Repeated from above (series 4):
Strand,fluorescence intensity
CTATGAAATAACATACACACGTGTAAGAATATATTC,5140 a.u.
CTAATTGGATTCGATCACGATGTATTCAATGAGTTC,725 a.u.
GAACACTGTTTATGTTGTGTGAACTTGTTGTAATAG,540 a.u.
TGTACGAAGCTATTCCACATGACTATAGTAGTTAGG,813 a.u.
CTATTTTATGGACCTGATGCAATCTAGTAGTCCTTC,488 a.u.
CTAGAGCAAGAACATCATCAGAAATACCAATGTTTC,504 a.u.
